Measured values of several laboratories.
Parts stem from different laboratories: compare values within a part only. pIC50: −log10 of the molar value.
Chain of UniProt Q6P3R8 (whole entry, looked up): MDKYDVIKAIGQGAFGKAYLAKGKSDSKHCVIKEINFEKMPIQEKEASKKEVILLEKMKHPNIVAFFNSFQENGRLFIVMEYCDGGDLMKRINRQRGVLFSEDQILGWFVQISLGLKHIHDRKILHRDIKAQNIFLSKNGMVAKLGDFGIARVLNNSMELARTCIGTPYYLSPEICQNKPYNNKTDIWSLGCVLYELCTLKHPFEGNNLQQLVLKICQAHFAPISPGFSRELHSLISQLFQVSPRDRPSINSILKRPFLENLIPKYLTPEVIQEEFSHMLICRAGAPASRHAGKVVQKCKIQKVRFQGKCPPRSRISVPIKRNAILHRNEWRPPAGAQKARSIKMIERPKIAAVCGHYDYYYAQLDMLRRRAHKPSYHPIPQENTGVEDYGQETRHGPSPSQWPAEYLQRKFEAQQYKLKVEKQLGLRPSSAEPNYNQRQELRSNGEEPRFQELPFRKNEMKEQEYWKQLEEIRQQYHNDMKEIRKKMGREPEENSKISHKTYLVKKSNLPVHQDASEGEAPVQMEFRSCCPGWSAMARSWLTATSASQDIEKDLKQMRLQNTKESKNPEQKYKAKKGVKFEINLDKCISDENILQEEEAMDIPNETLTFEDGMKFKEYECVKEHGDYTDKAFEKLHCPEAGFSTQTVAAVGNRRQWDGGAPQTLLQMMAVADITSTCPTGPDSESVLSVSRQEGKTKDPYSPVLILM
Chain of UniProt P19784 (whole entry, looked up): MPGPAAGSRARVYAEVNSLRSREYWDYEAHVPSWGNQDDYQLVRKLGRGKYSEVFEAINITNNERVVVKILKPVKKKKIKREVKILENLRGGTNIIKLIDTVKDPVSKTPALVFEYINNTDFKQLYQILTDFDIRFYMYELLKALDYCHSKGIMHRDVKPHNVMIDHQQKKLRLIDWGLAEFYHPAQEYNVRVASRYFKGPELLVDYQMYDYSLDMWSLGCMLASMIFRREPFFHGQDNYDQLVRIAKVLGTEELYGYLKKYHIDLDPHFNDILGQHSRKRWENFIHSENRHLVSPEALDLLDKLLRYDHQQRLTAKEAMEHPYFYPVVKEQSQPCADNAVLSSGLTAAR
Chain of UniProt Q9Y5S2 (whole entry, looked up): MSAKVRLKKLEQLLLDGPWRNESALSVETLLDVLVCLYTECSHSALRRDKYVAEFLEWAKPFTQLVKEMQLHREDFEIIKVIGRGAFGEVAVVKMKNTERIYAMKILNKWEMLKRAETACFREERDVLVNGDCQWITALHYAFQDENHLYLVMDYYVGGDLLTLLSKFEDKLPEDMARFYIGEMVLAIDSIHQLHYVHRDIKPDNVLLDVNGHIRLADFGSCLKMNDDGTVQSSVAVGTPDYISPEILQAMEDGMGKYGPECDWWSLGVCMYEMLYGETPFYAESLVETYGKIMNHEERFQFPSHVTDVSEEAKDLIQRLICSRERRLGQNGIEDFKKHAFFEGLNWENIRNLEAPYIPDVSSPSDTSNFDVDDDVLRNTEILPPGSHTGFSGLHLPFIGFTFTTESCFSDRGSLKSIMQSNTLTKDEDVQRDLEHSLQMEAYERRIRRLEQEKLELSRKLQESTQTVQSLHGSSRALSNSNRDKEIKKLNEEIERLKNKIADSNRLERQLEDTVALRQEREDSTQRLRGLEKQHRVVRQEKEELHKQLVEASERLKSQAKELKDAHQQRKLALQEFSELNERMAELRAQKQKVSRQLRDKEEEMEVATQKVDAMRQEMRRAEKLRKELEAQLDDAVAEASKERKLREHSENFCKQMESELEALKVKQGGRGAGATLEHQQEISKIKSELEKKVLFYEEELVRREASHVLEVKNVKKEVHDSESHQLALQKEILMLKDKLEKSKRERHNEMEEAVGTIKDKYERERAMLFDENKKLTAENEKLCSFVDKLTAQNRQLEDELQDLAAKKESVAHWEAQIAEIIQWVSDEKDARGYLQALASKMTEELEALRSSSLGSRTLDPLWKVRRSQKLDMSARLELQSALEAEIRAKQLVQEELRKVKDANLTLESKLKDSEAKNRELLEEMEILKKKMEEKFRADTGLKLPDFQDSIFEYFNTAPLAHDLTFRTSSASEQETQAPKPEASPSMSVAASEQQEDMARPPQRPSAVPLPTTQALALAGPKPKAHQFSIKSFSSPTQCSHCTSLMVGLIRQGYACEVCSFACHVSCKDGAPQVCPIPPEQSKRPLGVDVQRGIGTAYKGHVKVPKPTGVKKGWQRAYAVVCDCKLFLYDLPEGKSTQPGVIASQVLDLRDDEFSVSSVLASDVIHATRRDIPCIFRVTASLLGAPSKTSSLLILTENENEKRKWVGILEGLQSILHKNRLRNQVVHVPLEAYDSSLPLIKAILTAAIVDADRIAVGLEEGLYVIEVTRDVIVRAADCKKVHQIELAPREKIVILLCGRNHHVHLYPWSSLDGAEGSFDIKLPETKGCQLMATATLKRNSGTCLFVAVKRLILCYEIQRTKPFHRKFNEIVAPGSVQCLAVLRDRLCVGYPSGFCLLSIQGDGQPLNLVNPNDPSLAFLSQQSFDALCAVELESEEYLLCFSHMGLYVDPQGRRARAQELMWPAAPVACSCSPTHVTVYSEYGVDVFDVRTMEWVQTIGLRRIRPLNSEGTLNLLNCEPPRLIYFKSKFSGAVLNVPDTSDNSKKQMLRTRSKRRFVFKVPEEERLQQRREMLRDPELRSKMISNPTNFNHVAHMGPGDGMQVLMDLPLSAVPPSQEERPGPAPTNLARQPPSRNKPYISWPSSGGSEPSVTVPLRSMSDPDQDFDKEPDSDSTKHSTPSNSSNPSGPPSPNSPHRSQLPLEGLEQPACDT
Chain of UniProt P31751 (whole entry, looked up): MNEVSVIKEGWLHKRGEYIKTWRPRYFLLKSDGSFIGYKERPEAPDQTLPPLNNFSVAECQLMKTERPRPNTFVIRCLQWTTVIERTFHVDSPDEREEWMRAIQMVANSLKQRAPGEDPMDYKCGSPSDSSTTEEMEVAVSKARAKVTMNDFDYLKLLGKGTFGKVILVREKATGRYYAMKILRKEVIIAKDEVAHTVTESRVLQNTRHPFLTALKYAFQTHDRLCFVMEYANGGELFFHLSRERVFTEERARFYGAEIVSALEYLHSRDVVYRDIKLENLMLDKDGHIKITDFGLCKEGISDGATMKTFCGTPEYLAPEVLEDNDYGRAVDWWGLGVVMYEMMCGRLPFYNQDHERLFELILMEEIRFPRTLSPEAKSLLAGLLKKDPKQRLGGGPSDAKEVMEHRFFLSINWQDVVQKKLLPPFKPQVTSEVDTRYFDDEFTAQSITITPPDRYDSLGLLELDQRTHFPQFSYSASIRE
Chain of UniProt O00141 (whole entry, looked up): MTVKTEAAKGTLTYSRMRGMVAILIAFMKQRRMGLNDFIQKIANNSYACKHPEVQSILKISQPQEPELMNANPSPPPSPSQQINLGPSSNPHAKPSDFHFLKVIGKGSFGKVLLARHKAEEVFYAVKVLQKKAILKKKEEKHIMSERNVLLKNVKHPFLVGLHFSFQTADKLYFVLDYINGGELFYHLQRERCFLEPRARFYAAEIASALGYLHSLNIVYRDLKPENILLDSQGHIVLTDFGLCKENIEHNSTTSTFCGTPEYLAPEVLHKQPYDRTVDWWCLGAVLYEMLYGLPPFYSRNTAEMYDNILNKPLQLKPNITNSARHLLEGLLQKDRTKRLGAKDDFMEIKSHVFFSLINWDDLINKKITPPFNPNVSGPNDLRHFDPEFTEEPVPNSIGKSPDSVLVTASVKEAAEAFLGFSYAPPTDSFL
Chain of UniProt Q96L34 (whole entry, looked up): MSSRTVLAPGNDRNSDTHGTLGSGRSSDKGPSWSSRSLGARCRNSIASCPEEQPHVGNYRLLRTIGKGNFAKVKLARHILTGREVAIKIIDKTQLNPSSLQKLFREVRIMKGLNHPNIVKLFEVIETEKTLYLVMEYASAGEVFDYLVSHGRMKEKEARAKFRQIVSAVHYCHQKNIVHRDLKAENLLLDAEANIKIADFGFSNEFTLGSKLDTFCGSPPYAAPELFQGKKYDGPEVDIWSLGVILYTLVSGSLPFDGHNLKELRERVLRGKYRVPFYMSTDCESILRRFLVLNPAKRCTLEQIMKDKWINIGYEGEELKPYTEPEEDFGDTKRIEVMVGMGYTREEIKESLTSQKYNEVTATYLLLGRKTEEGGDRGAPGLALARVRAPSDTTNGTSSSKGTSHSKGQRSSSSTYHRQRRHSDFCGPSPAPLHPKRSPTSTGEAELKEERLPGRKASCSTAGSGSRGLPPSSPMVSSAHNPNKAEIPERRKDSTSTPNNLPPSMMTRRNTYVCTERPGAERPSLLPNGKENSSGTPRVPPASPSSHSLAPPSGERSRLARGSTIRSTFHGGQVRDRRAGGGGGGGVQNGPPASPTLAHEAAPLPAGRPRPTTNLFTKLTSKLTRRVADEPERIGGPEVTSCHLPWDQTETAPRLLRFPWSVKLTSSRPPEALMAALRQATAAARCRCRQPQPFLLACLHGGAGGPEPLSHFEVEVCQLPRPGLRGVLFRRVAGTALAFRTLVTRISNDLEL

Block 1
SMILES: Cc1sc(C(=O)NC2COC2)cc1-n1cc(NC(=O)Nc2c(F)cccc2Cl)cn1
Tested at: 10 µM
It gave 98.9% for remaining activity (SRPK3 (Homo sapiens, UniProt Q9UPE1); kinase activity, kinase panel profiling).
The remaining activity was 101% (MERTK (Homo sapiens, UniProt Q12866); enzyme activity; relative to: untreated control).
It gave 114% for remaining activity (SGK1 (Homo sapiens, UniProt O00141); enzyme activity; relative to: untreated control).

Block 2
SMILES: COc1cc(C(=O)N2CCC(N3CCN(C)CC3)CC2)ccc1Nc1ncc2c(n1)N(C)c1ccccc1C(=O)N2C
The inhibition was -27.8% (MAP3K1 (human); probe labelling, KiNativ ADP probe; human PBMC lysate; concentration not given, LYS2 labelled site).
MAP2K4 (mouse); probe labelling, KiNativ, measured: DIkPSNILLDR peptide, LYS2 site; brain tissue lysate (mouse); 0.1 µM, with: ADP acyl-phosphate probe — inhibition: -20%.
The inhibition was 8.1% (human PBMC; probe labeling, inhibitor, KiNativ profiling, measured: VDTHALYAMkTLR; cell lysate; 1 µM, LYS1 site, with: ATP acyl-phosphate probe).
It gave -0.6% for inhibition (mouse CaMK1δ; probe labelling, KiNativ ADP probe; mouse brain lysate; 1 µM, LYS1 site LFAVkCIPK).
The inhibition was 7.9% (PKD1 mouse; KiNativ profiling; mouse brain lysate; 1 µM, LYS1 site, with: ADP acyl phosphate probe).
p70S6K/p70S6Kb (mouse); probe labelling, inhibitor, KiNativ ActivX ATP probe; mouse brain lysate; 1 µM — inhibition: 6.1%.
It gave -4.1% for inhibition (MAP2K1 and MAP2K2 (mouse); probe labelling, KiNativ, measured: DVkPSNILVNSR peptide, LYS2 site; brain tissue lysate (mouse); 1 µM, with: ATP acyl-phosphate probe).
PAN3 human; KiNativ profiling; human PBMC lysate; concentration not given, ATP probe, other site — inhibition: 8.8%.

Block 3
Compound: CN(C(=O)c1ccccc1)c1cc(N(C)c2ccc3c(c2)CCc2ccc(C(=O)NCCN4CCOCC4)cc2C3=O)ccc1F
Read-out: cell-free assay
Technique: competition with immobilised ligand
Tested at: 1 µM
MAP3K3 (Homo sapiens, UniProt Q99759) — remaining binding: 100%.
The remaining binding was 100% (Ribosomal protein S6 kinase alpha-6, C-terminal kinase domain (RPS6KA6, Homo sapiens, UniProt Q9UK32)).
It gave 86% for remaining binding (ERN1 (Homo sapiens, UniProt O75460)).
The remaining binding was 100% (MAP2K4 (Homo sapiens, UniProt P45985)).
CDC42BPB (Homo sapiens, UniProt Q9Y5S2) — remaining binding: 97%.
For MARK4 (Homo sapiens, UniProt Q96L34): remaining binding read 88%.
For CSNK2A2 (Homo sapiens, UniProt P19784): remaining binding read 97%.
The remaining binding was 100% (MYLK2 (Homo sapiens, UniProt Q9H1R3)).
The remaining binding was 100% (BMPR2 (Homo sapiens, UniProt Q13873)).
For FLT3 (Homo sapiens, UniProt P36888, D835H): remaining binding read 100%.
NEK5 (Homo sapiens, UniProt Q6P3R8) — remaining binding: 95%.
It gave 95% for remaining binding (AKT2 (Homo sapiens, UniProt P31751)).
The remaining binding was 90% (Receptor-type tyrosine-protein kinase FLT3, autoinhibited (FLT3, Homo sapiens, UniProt P36888)).

Block 4
Target: Beta-1 adrenergic receptor (ADRB1, Homo sapiens, UniProt P08588)
Chain of UniProt P08588 (whole entry, looked up): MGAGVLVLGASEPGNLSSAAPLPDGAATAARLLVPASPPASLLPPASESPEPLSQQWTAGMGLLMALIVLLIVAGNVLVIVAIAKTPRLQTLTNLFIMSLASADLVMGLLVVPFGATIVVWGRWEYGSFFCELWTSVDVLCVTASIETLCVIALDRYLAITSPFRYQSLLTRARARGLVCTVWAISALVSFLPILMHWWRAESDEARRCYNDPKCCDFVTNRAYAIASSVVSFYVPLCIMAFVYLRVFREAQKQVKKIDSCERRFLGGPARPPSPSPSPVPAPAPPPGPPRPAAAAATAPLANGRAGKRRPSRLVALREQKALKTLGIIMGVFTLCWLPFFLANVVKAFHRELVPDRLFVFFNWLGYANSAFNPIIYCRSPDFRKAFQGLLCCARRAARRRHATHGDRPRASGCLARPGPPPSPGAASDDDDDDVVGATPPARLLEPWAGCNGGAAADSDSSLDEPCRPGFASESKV
Action: antagonist
For `C[C@@H]1CN(CC(=O)Nc2ccc3c(c2)Cc2cccc(-c4cc(=O)cc(N5CCOCC5)o4)c2S3)C[C@H](C)O1`, the pIC50 was ≤ 4.00.
`COc1ccc(Nc2n[nH]c(C(O)c3ccccc3)n2)cc1OC` (stereo not drawn) gave a pIC50 of ≤ 4.00.
The pIC50 of `Cc1cc(=O)oc2cc(O)c(O)cc12` is reported as ≤ 4.00.
For `c1ccc2c(c1)OCC(CNCc1cnc(N3CCOCC3)nc1)O2` (stereo not drawn), the pIC50 was ≤ 4.00.
`Cc1cccc2nc(C(=O)N3CCN(c4cccc(Cl)c4)CC3)cn12` has a pIC50 of ≤ 4.00.
For `CN(Cc1ccccc1)Cc1cc(CC2(NCc3ccc(N(C)C)cc3)COC2)no1`, the pIC50 was ≤ 4.00.

Excerpt of the above (block 1):
It gave 98.9% for remaining activity (SRPK3 (Homo sapiens, UniProt Q9UPE1); kinase activity, kinase panel profiling).
The remaining activity was 101% (MERTK (Homo sapiens, UniProt Q12866); enzyme activity; relative to: untreated control).
It gave 114% for remaining activity (SGK1 (Homo sapiens, UniProt O00141); enzyme activity; relative to: untreated control).
